# Measured values collected from several papers.
# Lines come from different studies, so protocols differ. Numbers after ± are the reported error.
SMILES,cell line,test,test system,setting,how to read,measurement,value
CC(C)C[C@H](NC(=O)[C@H](CCCCN)NC(=O)[C@H](CC(C)C)NC(=O)[C@H](CC(C)C)NC(=O)[C@H](CCCCN)NC(=O)[C@H](CCCCN)NC(=O)[C@H](CC(C)C)NC(=O)[C@H](CC(C)C)NC(=O)[C@H](CCCCN)NC(=O)[C@H](CC(C)C)NC(=O)[C@H](CC(C)C)NC(=O)[C@H](CCCCN)NC(=O)[C@H](CCCCN)NC(=O)[C@@H](N)CC(C)C)C(N)=O,mouse erythrocytes,,,"200 µM, 1 h, 37 °C",relative to: Triton X-100,hemolysis,71.1%
COc1cc(COc2ccc3c(c2)CN(C(=O)[C@H](CCC(=O)O)NC(=O)[C@H](CC(=O)O)NC(=O)[C@H](CC(=O)O)NC(=O)[C@H](CCC(=O)O)NC(=O)[C@@H](CCCNC(=N)N)NC(=O)[C@@H](CCCNC(=N)N)NC(=O)[C@@H](CCCNC(=N)N)NC(=O)[C@H](C)N(C)C(=O)[C@H](Cc2ccccc2)NC(=O)[C@@H](NC(=O)[C@H](Cc2ccccc2)NC(=O)[C@H](C)NC(=O)[C@H](CCCNC(=N)N)N(C)C(=O)[C@@H]2CCCN2C(=O)[C@H](CCCNC(=N)N)NC(=O)CNC(=O)c2ccc4c(c2)C2(OC4=O)c4ccc(O)cc4Oc4cc(O)ccc42)[C@@H](C)OCc2cc(OC)c(OC)cc2[N+](=O)[O-])[C@H](C(=O)N[C@@H](CCC(=O)O)C(=O)N[C@@H](CCC(=O)O)C(=O)N[C@H](C(N)=O)C(C)C)C3)c([N+](=O)[O-])cc1OC,A-431,,,"30 min, 37 °C",,reporter degradation,0%
COc1ccc(CCNc2c(NC3CCN(Cc4ccccc4)CC3)c(=O)c2=O)cc1OC,SH-SY5Y,MTT,,"6.25 µM, 24 h",,viability,108 ± 1.38%
NNc1nc2cc3ccccc3cc2c(=O)n1Cc1ccccc1,BGM,morphology and trypan blue,,72 h,,maximum non-toxic concentration,60 µg/mL
CCCCCCCCCCCCCCCC(=O)OCC(CSC[C@H](N)C(=O)N[C@@H](CO)C(=O)N[C@@H](CCCCN)C(=O)N[C@@H](CCCCN)C(=O)N[C@@H](CCCCN)C(=O)N[C@@H](CCCCN)C(=O)NCCCCCC(=O)N[C@@H](CCCCN)C(=O)N[C@@H](CC(C)C)C(=O)N[C@H](C(=O)N[C@@H](Cc1ccccc1)C(=O)N[C@@H](Cc1ccccc1)C(=O)N[C@@H](Cc1ccc2ccccc2c1)C(=O)O)C(C)C)OC(=O)CCCCCCCCCCCCCCC (stereo partly drawn),BV-2,"western blot, measured: NLRP3",,"1.0 µM, 12 h",,protein level,increased
O=c1c(NCCc2ccccc2)c(NC2CCN(Cc3ccccc3)CC2)c1=O,SH-SY5Y,MTT,,"12.5 µM, 24 h",,viability,118 ± 2.16%
CC(C)C[C@H](NC(=O)[C@H](CCCCN)NC(=O)[C@H](CC(C)C)NC(=O)[C@H](CC(C)C)NC(=O)[C@H](CCCCN)NC(=O)[C@H](CCCCN)NC(=O)[C@H](CC(C)C)NC(=O)[C@H](CC(C)C)NC(=O)[C@H](CCCCN)NC(=O)[C@H](CC(C)C)NC(=O)[C@H](CC(C)C)NC(=O)[C@H](CCCCN)NC(=O)[C@H](CCCCN)NC(=O)[C@H](CC(C)C)NC(=O)[C@@H](N)CSSC[C@H](N)C(=O)N[C@@H](CC(C)C)C(=O)N[C@@H](CCC(=O)O)C(=O)N[C@@H](Cc1c[nH]cn1)C(=O)N[C@@H](CC(C)C)C(=O)N[C@@H](CC(C)C)C(=O)N[C@@H](CCC(=O)O)C(=O)N[C@@H](Cc1c[nH]cn1)C(=O)N[C@@H](CC(C)C)C(=O)N[C@@H](CCC(=O)O)C(=O)N[C@@H](Cc1c[nH]cn1)C(=O)N[C@@H](CC(C)C)C(=O)N[C@@H](CC(C)C)C(=O)N[C@@H](CCC(=O)O)C(=O)N[C@@H](Cc1c[nH]cn1)C(N)=O)C(N)=O,mouse erythrocytes,,,"200 µM, 1 h, 37 °C",relative to: Triton X-100,hemolysis,~13.8%
CC[C@H](C)[C@H](NC(=O)[C@H](CCC(N)=O)NC(=O)[C@@H](NC(=O)[C@@H]1CCCN1[C@@H]1CN(C(=O)[C@H](CCCCN)NC(=O)[C@H](CC(N)=O)NC(=O)[C@@H](NC(=O)[C@@H](NC(=O)[C@H](CCC(N)=O)NC(=O)[C@@H](N)C(C)C)[C@@H](C)CC)[C@@H](C)CC)CC[C@H]1NS(=O)(=O)c1ccc(C)cc1)C(C)C)C(=O)N[C@H](C(=O)N[C@@H](Cc1ccc(O)cc1)C(=O)N[C@@H](CCCCN)C(N)=O)C(C)C,PC-12 (neuronally differentiated),LDH release,,20 h,,highest non-toxic concentration,≥ 100 µM
O=c1c2cc3ccccc3cc2[nH]c(=S)n1Cc1ccccc1,BGM,morphology and trypan blue,,72 h,,maximum non-toxic concentration,60 µg/mL
COC(=O)C1=CO[C@@H](O)[C@@H]2C(Cn3cc(C4(O)CCCCC4)nn3)=CC[C@H]12,SK-N-SH,MTT,,"0.075 to 0.6 µM, 24 h, together with: H2O2",,viability,> 78%
Cc1c(C)c(C)[c-](C)c1C.Fc1c[c-]c(-c2ccccn2)cc1.[Cl-].[Ir+3],A2780,ICP-MS,,IC50,,membrane and particulate iridium,28.4%
N=C(N)NCCC[C@@H]1NC(=O)[C@H](Cc2csc3ccccc23)NC(=O)[C@@H](Cc2ccccc2)NC(=O)[C@H](Cc2ccccc2)NC(=O)[C@H](CCC(=O)NCCOCCOCC(=O)N[C@@H](CCCCNC(=O)c2ccc3c(c2)C(=O)OC32c3ccc4cc(O)ccc4c3Oc3c2ccc2cc(O)ccc32)C(N)=O)NC(=O)[C@@H](CCCNC(=N)N)NC(=O)[C@H](CCCNC(=N)N)NC(=O)[C@@H](CCCNC(=N)N)NC1=O,HeLa,"cell penetration, flow cytometry",,"0.5 µM, 2 h, 1% FBS",relative to: CPP12,cytosolic entry,186 ± 7%
Nc1ccc(CCNc2c(NC3CCN(Cc4ccccc4)CC3)c(=O)c2=O)cc1,SH-SY5Y,MTT,,"6.25 µM, 24 h",,viability,102 ± 2.78%
CC(C)[C@@H]1NC(=O)CNC(=O)[C@H](CC(N)=O)NC(=O)[C@H](CCCNC(=N)N)NC(=O)[C@H](Cc2ccc(O)cc2)NC(=O)[C@H](C(C)C)NC(=O)[C@@H](NC(=O)[C@@H](NC(=O)[C@H](CC(N)=O)NC(=O)[C@H](Cc2c[nH]c3ccccc23)NC(=O)[C@H](C)NC(=O)[C@H](Cc2ccccc2)NC(=O)CNC(=O)[C@H](CCCCN)NC(=O)[C@H](Cc2ccccc2)NC(=O)[C@H](Cc2ccccc2)NC(=O)[C@H](CCCCN)NC(=O)OCC2c3ccccc3-c3ccccc32)C(C)C)CSSC[C@@H](C(=O)N[C@@H](Cc2c[nH]cn2)C(=O)N[C@@H](CCCNC(=N)N)C(=O)N[C@@H](CCCNC(=N)N)C(=O)N[C@@H](C)C(=O)N[C@@H](CC(N)=O)C(N)=O)NC(=O)[C@H](C(C)C)NC(=O)[C@H](CCCNC(=N)N)NC1=O,mouse erythrocytes,,,"128 µM, 1 h",,hemolysis,6.08%
CC1(C)CC([n+]2cc([NH-])on2)CC(C)(C)N1O,human trabecular meshwork cells,,,"24 h, serum-free",,highest non-toxic concentration,≤ 125 µM
Cc1ccc(CNc2c(NC3CCN(Cc4ccccc4)CC3)c(=O)c2=O)cc1,SH-SY5Y,MTT,,"6.25 µM, 24 h",,viability,102 ± 1.74%
CSCC[C@H](NC(=O)CCCCCNC(=S)Nc1ccc2c(c1)C(=O)OC21c2ccc(O)cc2Oc2cc(O)ccc21)C(=O)N[C@@H](C)C(=O)N[C@@H](CC(N)=O)C(=O)N[C@@H](CC(C)C)C(=O)NCC(=O)N[C@@H](Cc1ccc(O)cc1)C(=O)N[C@@H](Cc1c[nH]c2ccccc12)C(=O)N[C@@H](CC(C)C)C(=O)N[C@@H](CC(C)C)C(=O)N[C@@H](C)C(=O)N[C@@H](CC(C)C)C(=O)N[C@@H](Cc1ccccc1)C(=O)N[C@H](C(=O)N[C@H](C(=O)N[C@@H](Cc1ccc(O)cc1)C(=O)N[C@@H](Cc1c[nH]c2ccccc12)C(=O)N[C@H](C(=O)N[C@@H](CC(=O)O)C(=O)N[C@@H](CC(C)C)C(=O)NCC(=O)N[C@@H](CC(C)C)C(=O)N[C@H](C(=O)N[C@@H](CCCCN)C(=O)N[C@@H](CCCCN)C(=O)N[C@@H](CCCNC(=N)N)C(=O)N1CCC[C@H]1C(=O)N[C@@H](CCCCN)C(=O)N1CCC[C@H]1C(=O)O)C(C)C)[C@@H](C)O)[C@@H](C)O)C(C)C,human PBMCs,"imaging flow cytometry, FITC-labelled",,"1 µM, 30 min",relative to: CD19+ B cells,cells with internalized IRF5-colocalized peptide,19.2%
NC(=O)c1ccc(C(=O)NOCc2ccc(Sc3cccc(Cl)c3)c(C(F)(F)F)c2)cc1,BXPC-3 cells (human),CCK-8,,100 µM,,cytotoxicity,not toxic
C=C(C)[C@@H]1CC[C@]2(CO)CC[C@]3(C)[C@H](CC[C@@H]4[C@@]5(C)CCCNC(C)(C)[C@@H]5CC[C@]43C)[C@@H]12,primary HFF,"cell viability, CellTiter-Glo",,HCMV AD169 assay setting,,CC50,17.2 µM
CC[C@H](C)[C@H](NC(=O)[C@H](CCC(=O)O)NC(=O)CNC(=O)[C@@H](NC(=O)[C@H](CC(C)C)NC(=O)[C@H](CC(C)C)NC(=O)[C@H](CC(C)C)NC(=O)[C@H](CC(C)C)NC(=O)[C@H](CS)NC(=O)[C@H](CO)NC(=O)[C@H](Cc1ccccc1)NC(=O)CNC(=O)[C@H](CCCNC(=N)N)NC(=O)[C@@H]1CCCN1C(=O)[C@H](C)NC(=O)[C@H](CCSC)NC(=O)CNC(=O)CNC(=O)[C@H](Cc1ccccc1)NC(=O)[C@H](CCCCN)NC(=O)[C@H](Cc1c(C)cc(O)cc1C)NC(=O)[C@H](N)CCCNC(=N)N)[C@@H](C)O)C(=O)N[C@@H](CC(=O)O)C(=O)N[C@@H](CC(C)C)C(=O)N1CCC[C@H]1C(=O)N[C@H](C(=O)N[C@@H](CCCCN)C(=O)N[C@@H](CCCNC(=N)N)C(=O)N[C@@H](CCCNC(=N)N)C(=O)N[C@@H](C)C(N)=O)C(C)C,bEnd.3 monolayer,transwell BBB model,,"10 µM, 2 h, FITC-labelled",relative to: HNG,BBB penetration,9.54 fold
O=c1c(NCCc2ccc(Br)cc2)c(NC2CCN(Cc3ccccc3)CC2)c1=O,SH-SY5Y,MTT,,"6.25 µM, 24 h",,viability,107.3 ± 0.59%
O=C(CCC(=O)OCCNC(=O)[C@@H](Cc1ccccc1)NC(=O)[C@@H](Cc1ccccc1)NC(=O)Cc1ccc2ccccc2c1)NCCS(=O)(=O)O,SK-OV-3,LC-MS,culture medium,"20 µM, 4 h",,concentration in medium,16 µM
Cn1c(NN)nc2cc3ccccc3cc2c1=O,BGM,morphology and trypan blue,,72 h,,maximum non-toxic concentration,55 µg/mL
CC1C(=NOCc2cc(-c3ccc(Cl)cc3)no2)C(C)C(c2ccc(Cl)cc2)OC1c1ccc(Cl)cc1 (stereo not drawn),human PBMC,"cytotoxicity, MTT",,,,IC50,476 µg/mL

# Repeated from above:
SMILES,cell line,test,test system,setting,how to read,measurement,value
Cc1ccc(CNc2c(NC3CCN(Cc4ccccc4)CC3)c(=O)c2=O)cc1,SH-SY5Y,MTT,,"6.25 µM, 24 h",,viability,102 ± 1.74%
